Measured values from different studies.
A part holds a random share of what one study measured.

Sample 1
Target: Histone acetyltransferase KAT6A, winged helix 2, GST fusion (KAT6A, Homo sapiens, UniProt Q92794, residues 85-181)
Technique: protein binding microarray
Molecule type: double-stranded DNA, one strand shown
Sample: in vitro
Concentration: not given
Setting: 8-mer, flanks averaged, mean of 2 arrays, mostly near background
Relative to: not given
Reading: higher = stronger binding
Target sequence (chain): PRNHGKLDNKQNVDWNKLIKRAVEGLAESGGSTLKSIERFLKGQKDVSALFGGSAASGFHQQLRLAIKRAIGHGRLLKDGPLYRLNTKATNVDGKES
`ACCACGGG` has an E-score of 0.0561.
`GGTTCTAC` gave an E-score of -0.111.
`AAGGTGAC` gave an E-score of -0.137.
With `GACTACCA` the E-score was -0.174.
`ATCCTTTG` gave an E-score of -0.121.
The E-score of `ATTAGGGG` is reported as -0.0652.
With `ACATCCTG` the E-score was 0.0244.
For `AAACCGCG`, the E-score was 0.196.
`GCTCCAAA` has an E-score of 0.0456.
With `ATCCTCAT` the E-score was -0.205.
`GCATACCA` has an E-score of -0.169.
`CTGCTCAA` gave an E-score of -0.0362.
`TGATGGAA` has an E-score of -0.12.
With `AGGCCACC` the E-score was -0.0265.
`GTCGGTAA` has an E-score of -0.0962.
The E-score of `GCACATTA` is reported as -0.119.
`ACGCGGTA` gave an E-score of 0.0476.
`AAACCTAA` has an E-score of -0.0791.
`AGACAATC` has an E-score of 0.0622.
With `AGAGGCAT` the E-score was 0.137.

Sample 2
Target: RING finger protein unkempt homolog, zinc fingers 1-6, GST-SBP tag (UNK, Homo sapiens, UniProt Q9C0B0, residues 30-357)
UniProt Q9C0B0, sequence (30-357, looked up): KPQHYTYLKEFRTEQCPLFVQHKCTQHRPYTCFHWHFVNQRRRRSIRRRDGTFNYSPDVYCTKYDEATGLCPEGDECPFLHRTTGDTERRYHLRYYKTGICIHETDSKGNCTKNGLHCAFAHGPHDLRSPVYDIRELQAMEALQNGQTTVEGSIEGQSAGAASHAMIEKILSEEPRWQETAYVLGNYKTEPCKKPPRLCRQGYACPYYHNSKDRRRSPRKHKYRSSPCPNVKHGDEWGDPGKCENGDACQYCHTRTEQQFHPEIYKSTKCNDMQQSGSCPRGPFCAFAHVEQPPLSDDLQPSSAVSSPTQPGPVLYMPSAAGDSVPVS
Technique: RNA Bind-n-Seq
Molecule type: RNA
Sample: in vitro
Concentration: not given
Setting: RNA with constant flanks, human-mouse chimeric sites, ends assumed
Relative to: input RNA pool
Reading: higher = stronger binding
With `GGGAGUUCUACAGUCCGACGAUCUAAGUUAUUUUGUACAGCUUUGUAAAUUCUUAACAUUUUUAUAUUGCACAUUUUAUGUUUUUUAGAUAAUUUGGUUCAUUAAGUACAUAGCUAAGGUAAUGAACAUCUUUUUCAGUAAUUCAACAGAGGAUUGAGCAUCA` the bound/input enrichment was 2.91 ratio.
The bound/input enrichment of `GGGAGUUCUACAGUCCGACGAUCUUCCCAACCUCCCGCCUCACCCCACCCCCGCUUUUUGGAAAGUUUUUGGCGUUUCUUUUCCUUCCCCAUACAAAGUGGUUUUUACCACCCCCGCAAGGGUCUAUCGAAGGGCUUGACGGACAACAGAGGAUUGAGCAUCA` is reported as 0.45 ratio.
For `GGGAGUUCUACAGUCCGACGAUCACAGUUAUAUUGUUGAGUUUCAUUUUCAUAUAUUCUUAUGGUGUCUGCUUGCCUGUGACUUCUGGUAAAAUAAGACUAGCCUUUGAAAAUAUUUUAGCAUGGUAUUUAACAUUUUCUAAACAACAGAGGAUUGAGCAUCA`, the bound/input enrichment was 3.07 ratio.
With `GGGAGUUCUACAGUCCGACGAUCGCUGAAAAUGAAGAAGAGGCAGCUGAUGUCUGGUACAACCUGGGGCAUGUAGCUGUGGGAAUCGGAGAUACAAACUUGGCCCACCAAUGCUUCAGGCUGGCUCUGGUCCACAACAACCACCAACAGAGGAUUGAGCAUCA` the bound/input enrichment was 0.142 ratio.
`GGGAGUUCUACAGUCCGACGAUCGGCCUGGGACCGUCCUGGGCUAGUACAAUAGCGGCAGGUGGAGGCUCGAGAGGAAAGUUUGUUAGUGAGGCAGUGGUUAGAGGCCGUCAUGUACGGUCCUUUACUCGAUAGAUGUGUUCUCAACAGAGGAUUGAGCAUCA` gave a bound/input enrichment of 0.698 ratio.
The bound/input enrichment of `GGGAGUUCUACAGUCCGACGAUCGAGUCGAGCAAACUUGAAACUACAGAAUAUCUUGCAGCCUCAGUGUUCACUUGCUUGUGGCAAUAGCUGGGGUUUUAUAGGUUCUGGAAGGAGAACUGACGAUGAUGCUGCCGCUGCUGCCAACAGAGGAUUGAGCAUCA` is reported as 0.224 ratio.
`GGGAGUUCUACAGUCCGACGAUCGUUGCCAGCUUCCGGUUCCGUUGGGCUCGGUUCUCUCAGUGCUACGUUGUCUCUACGCUCUCAAUCCGCCAUCCAACAAACAUGGAUCAGGUAAUGCAGUUUGUGGAGCCCAGCCGGCAGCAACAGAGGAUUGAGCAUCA` gave a bound/input enrichment of 0.128 ratio.
With `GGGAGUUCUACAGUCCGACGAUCCUCGGCACCGGCACGCUUUACAUCGCUGAGAGCCGCCUGUCCUGGUUAGAUGGCUCUGGAUUAGGAUUCUCACUGGAAUACCCCACCAUUAGUUUACAUGCGGUGUCCAGGGAUCCAAACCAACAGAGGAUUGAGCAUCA` the bound/input enrichment was 0.391 ratio.

Sample 3
Target: Centromere-binding protein 1, full length, His-tagged (CBF1, Saccharomyces cerevisiae, UniProt P17106, residues 1-351)
UniProt P17106, sequence (whole entry, looked up): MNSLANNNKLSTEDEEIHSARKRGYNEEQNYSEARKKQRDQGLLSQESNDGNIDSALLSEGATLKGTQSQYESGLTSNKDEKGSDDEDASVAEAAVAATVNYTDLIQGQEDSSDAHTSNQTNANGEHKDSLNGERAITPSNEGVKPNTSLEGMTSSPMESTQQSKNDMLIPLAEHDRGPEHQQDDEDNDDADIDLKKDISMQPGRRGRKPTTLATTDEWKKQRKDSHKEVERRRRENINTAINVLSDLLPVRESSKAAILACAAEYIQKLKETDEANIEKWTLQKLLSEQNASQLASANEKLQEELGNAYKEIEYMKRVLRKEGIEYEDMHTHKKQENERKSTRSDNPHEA
Technique: competition protein-binding microarray
Molecule type: double-stranded DNA, one strand shown
Sample: in vitro
Concentration: 2 µM
Setting: whole 60-bp probe, lowest competitor level
Added: Pho4 competitor, 0.05 µM
Reading: higher = stronger binding
With `CCAGGGCCAGAGGGGCACGTGGCGCCGGTGAGTGGCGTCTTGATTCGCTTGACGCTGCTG` the fluorescence intensity was 681 a.u.
`CATTCGAGTCTATTGTGCGTGTTGGCTTAGATTCTTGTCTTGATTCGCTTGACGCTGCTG` gave a fluorescence intensity of 66.9 a.u.
The fluorescence intensity of `AAGAAGCTAATTTTGCACGTAAACAACAATCTATACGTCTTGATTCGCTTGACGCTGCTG` is reported as 71.6 a.u.
For `AATTTGAATGGTAAGCTCGTGACGGAATTGTGGCTGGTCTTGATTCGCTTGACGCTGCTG`, the fluorescence intensity was 364 a.u.
`CGTCCTAGTGATTGGCAGGTGGGTGCCATGAGGAAGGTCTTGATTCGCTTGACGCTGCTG` has a fluorescence intensity of 77.9 a.u.
`CGAAAATAGCTATCGCACGTATCGAATACCAAATCAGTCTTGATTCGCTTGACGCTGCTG` gave a fluorescence intensity of 62.1 a.u.
The fluorescence intensity of `ACCATATTGATTTCGCATGTGTCTCTGGTTCATCGGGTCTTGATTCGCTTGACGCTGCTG` is reported as 98.6 a.u.
`GTCTTGTCTCATTGCACTGTGGGTGTCCCCACTTCAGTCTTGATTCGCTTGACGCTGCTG` has a fluorescence intensity of 73.3 a.u.
The fluorescence intensity of `AAATTACTAAGTTGGATGGTGGGTGACGCCGTATGAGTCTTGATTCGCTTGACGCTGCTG` is reported as 65.1 a.u.
The fluorescence intensity of `GCCAACAAGTGAACACACGTGAAAATGTTTTCAGTAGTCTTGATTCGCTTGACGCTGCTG` is reported as 646 a.u.
`CATACCCAACCTTGTCACTTCACTTAAGATATTTGTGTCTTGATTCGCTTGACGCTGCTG` gave a fluorescence intensity of 88.3 a.u.
`GACATCTTCAGTACCCATGTGTAATTTGGCGAATTTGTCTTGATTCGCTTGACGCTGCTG` gave a fluorescence intensity of 108 a.u.
`CGGGGTTAAGTTTGGCAGGTGGGTGGCTTGCAGCAGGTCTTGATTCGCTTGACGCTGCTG` gave a fluorescence intensity of 71.5 a.u.
The fluorescence intensity of `TCCTCTCTGGACGGCATCGTGTCGGACGACGCCGCAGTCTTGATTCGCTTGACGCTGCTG` is reported as 54.7 a.u.
With `AAAATTTGGCAACCTAAAGGAGATTTTGGACGAGTTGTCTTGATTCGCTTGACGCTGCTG` the fluorescence intensity was 68.3 a.u.
For `CAGTTTTCCGCAAAGCACGTTTAACTGGGCAGGGATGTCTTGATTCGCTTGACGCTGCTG`, the fluorescence intensity was 82.3 a.u.
`GTTATTCGAGATTTGCACGTGGACCCTGAAGTCTTGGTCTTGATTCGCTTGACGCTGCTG` gave a fluorescence intensity of 1120 a.u.
The fluorescence intensity of `CATACCCAACCTTTTCACGTGTGATAAGATATTTGTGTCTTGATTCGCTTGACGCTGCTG` is reported as 716 a.u.
`TGCGCAACAACTTGACCTGTGGGTGTATGTCTAGAAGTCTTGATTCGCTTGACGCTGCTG` gave a fluorescence intensity of 63.9 a.u.
The fluorescence intensity of `GTCAGAAAGCCGGGTAAGGTGTGCCAGCGCGAGTAAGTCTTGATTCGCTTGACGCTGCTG` is reported as 73.4 a.u.
`AAAGCGGTAATTTTTCACGTGTAATCAAATATCTATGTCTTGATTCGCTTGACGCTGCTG` has a fluorescence intensity of 1400 a.u.
With `ATGAACCATGCCCAACACGATGTCGTTATTCACTCTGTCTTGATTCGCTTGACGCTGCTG` the fluorescence intensity was 84.8 a.u.
With `ACATCCTGCGAATCTCATGTGTGTACTGAATCCATCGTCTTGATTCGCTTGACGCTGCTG` the fluorescence intensity was 93.1 a.u.
With `TGCTACGCGTAGTGCAGCGTGACGGCGGGCTAAAAAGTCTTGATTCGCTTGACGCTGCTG` the fluorescence intensity was 101 a.u.
With `CTAACGAAGGTTTGGCGTGTGGGTGACAAGCCAAGTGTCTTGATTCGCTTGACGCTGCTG` the fluorescence intensity was 62.8 a.u.

Sample 4
Target: Sal-like protein 4, full length isoform B (SALL4, Homo sapiens, UniProt Q9UJQ4-2, residues 1-616)
Technique: universal PBM
Molecule type: double-stranded DNA, one strand shown
Sample: in vitro
Concentration: not given
Setting: 8-mer, flanks averaged, mean of replicates
Reading: higher = stronger binding
Target sequence (chain): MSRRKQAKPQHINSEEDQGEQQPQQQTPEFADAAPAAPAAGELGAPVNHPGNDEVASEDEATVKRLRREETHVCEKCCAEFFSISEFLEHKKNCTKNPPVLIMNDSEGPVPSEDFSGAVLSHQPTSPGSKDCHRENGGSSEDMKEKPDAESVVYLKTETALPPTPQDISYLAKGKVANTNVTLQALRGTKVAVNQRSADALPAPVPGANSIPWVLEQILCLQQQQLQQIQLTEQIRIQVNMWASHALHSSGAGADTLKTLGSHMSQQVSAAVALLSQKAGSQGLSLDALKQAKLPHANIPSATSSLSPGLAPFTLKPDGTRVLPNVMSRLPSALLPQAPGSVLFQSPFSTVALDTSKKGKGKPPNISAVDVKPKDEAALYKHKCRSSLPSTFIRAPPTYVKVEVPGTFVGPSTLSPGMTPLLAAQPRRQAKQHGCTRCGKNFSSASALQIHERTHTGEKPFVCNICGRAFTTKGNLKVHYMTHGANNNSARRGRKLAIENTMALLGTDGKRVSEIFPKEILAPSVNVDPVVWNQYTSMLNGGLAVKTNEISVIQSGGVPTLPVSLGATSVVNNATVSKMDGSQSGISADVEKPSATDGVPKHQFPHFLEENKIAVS
`TACTTTGA` gave an E-score of 0.075.
The E-score of `CTTCAGCC` is reported as -0.192.
For `ATGGAGGC`, the E-score was -0.0465.
The E-score of `GAAACTAC` is reported as 0.114.
With `TAGGTGAA` the E-score was 0.0292.
The E-score of `CACGTTAA` is reported as 0.15.
`AAAACGAG` has an E-score of 0.0278.
`AGCAGCAC` has an E-score of -0.286.
`AGGTGTAG` has an E-score of 0.0151.
With `GAGATTGA` the E-score was 0.0791.
With `CCAGGAGG` the E-score was -0.288.
`CGCAAACA` has an E-score of 0.0767.
`AGGAAAGA` has an E-score of 0.0872.
With `ACAAAAAT` the E-score was 0.365.
`CCACGGTA` has an E-score of -0.182.
With `AGCCCCAA` the E-score was -0.209.
`GAGTTGGA` has an E-score of -0.0422.
`ACCTACGC` gave an E-score of -0.123.
For `GCATTTAA`, the E-score was 0.109.
The E-score of `CAATGAGA` is reported as 0.0605.
The E-score of `AAAGGAGA` is reported as 0.00487.
`ATTTGAGA` gave an E-score of 0.186.
`CAATAACA` gave an E-score of 0.295.
For `GGTTGCCA`, the E-score was -0.174.
For `CAGCCGCG`, the E-score was -0.332.
